# Measurements collected from several papers.
# Each line is one published result; not all experiments were run side by side. Numbers after ± are the reported error.
Compound,target or system,assay,test system,setting,scale,endpoint,result
C[C@H](NC(=O)[C@H](CCC(N)=O)NC(=O)[C@H](CCCCN)NC(=O)[C@H](C)NC(=O)[C@@H]1CCCN1C(=O)[C@H](C)NC(=O)[C@H](CCCCN)NC(=O)[C@H](CCC(N)=O)NC(=O)[C@H](C)NC(=O)[C@H](CCCCN)NC(=O)[C@H](CCC(N)=O)NC(=O)[C@@H]1CCCN1C(=O)[C@H](CCC(N)=O)NC(=O)[C@H](CCCCN)NC(=O)[C@H](C)NC(=O)[C@H](CCC(N)=O)NC(=O)[C@H](CCCCN)NC(=O)[C@H](C)NC(=O)[C@@H]1CCCN1C(=O)[C@H](C)NC(=O)[C@H](CCCCN)NC(=O)[C@H](CCC(N)=O)NC(=O)[C@H](C)NC(=O)[C@H](CCCCN)NC(=O)[C@H](CO)NC(=O)[C@H](Cc1ccc(O)cc1)NC(=O)CNC(=O)CNC(=O)CN)C(=O)N[C@@H](CCCCN)C(=O)N[C@@H](CCC(N)=O)C(=O)O,,"binding, SPR Langmuir fit",rVλ6Wil fibrils,"300 nM, pH 7.4",,association rate constant,83000 M⁻¹ s⁻¹
NC(=NN=Cc1cccs1)[S][Ru+]([Cl])([P](c1ccccc1)(c1ccccc1)c1ccccc1)[P](c1ccccc1)(c1ccccc1)c1ccccc1.[Cl-],"Albumin (ALB, Bos taurus, UniProt P02769)",fluorescence quenching,,"together with: warfarin, site I marker",,Stern-Volmer constant,1630 M⁻¹
CC(C)[C@H](N)C(=O)N[C@@H](Cc1ccc(O)cc1)C(=O)N[C@@H](CCCCN)C(=O)N[C@H](C(=O)N[C@@H](CCCCN)C(=O)N[C@H](C(=O)N[C@@H](CCCCN)C(=O)N[C@H](C(=O)N[C@@H](CCCCN)C(=O)N[C@H](C(=O)N[C@@H](CCCCN)C(=O)N[C@H](C(=O)N[C@@H](CCCCN)C(=O)N[C@H](C(=O)N[C@@H](CCCCN)C(=O)N[C@H](C(=O)N[C@@H](CCCCN)C(=O)N[C@H](C(=O)O)[C@@H](C)O)C(C)C)[C@@H](C)O)C(C)C)[C@@H](C)O)C(C)C)[C@@H](C)O)C(C)C,,"binding, SPR two-state model",rVλ6Wil fibrils,300 nM,,ka2,0.007 s⁻¹
"CCOC(=O)C1C(OC(c2ccc(Cl)cc2)c2ccc(Cl)cc2)CC2CCC1N2C (single isomer, unassigned)",rat 5-HT2 receptors,"binding, radioligand displacement",,"inactive if below 75% at 10000 nM, together with: [3H]ketanserin",,Ki,inactive
CCCCCn1cc(C(=O)c2ccc3c(c2)CC(C)(C)C3)c2ccccc21,"Cannabinoid receptor 2 (CNR2, Homo sapiens, UniProt P34972, V261L)","Gαi1 engagement, agonist, BRET",,,reference: reference agonist at wild-type CB2,Emax,32.4 ± 12.5%
CCCC[C@H](NC(=O)CNC(=O)CNC(=O)c1ccc(NN)nc1)C(=O)N[C@H]1CC(=O)NCCCC[C@@H](C(N)=O)NC(=O)[C@H](Cc2c[nH]c3ccccc23)NC(=O)[C@H](CCCNC(=N)N)NC(=O)[C@@H](Cc2ccccc2)NC(=O)[C@H](Cc2c[nH]cn2)NC1=O [technetium-99m labelled],,,"C57 mouse, B16/F1 melanoma-bearing, pancreas","intravenous, 0.5 h",,tissue uptake,0.5 ± 0.21 %ID/g
CSCC[C@H](NC(=O)[C@H](CCSC)NC(=O)[C@H](CCSC)NC(=O)[C@@H](N)CO)C(=O)N[C@@H](CS)C(=O)O,"Formylglycine-generating enzyme (Mycobacterium tuberculosis, UniProt I6Y8I5)","enzyme activity, inhibitor, LC-MS",,"100 µM, 10 min, together with: pentapeptide substrate",,inhibition,> 50%
CCCCCn1cc(C(=O)c2cccc3c2CC(C)(C)C3)c2ccccc21,"Cannabinoid receptor 2 (CNR2, Homo sapiens, UniProt P34972)","Gαi1 engagement, agonist, BRET",HEK293T,,reference: reference agonist,Emax,78.7 ± 8.5%
CN[C@](C)(C[18F])C(=O)O,DU-145 tumour model,,"host not given, muscle","30 min, tumour-bearing",,tracer uptake,1.7 %ID/g
N=C(N)NCCC[C@@H]1NC(=O)[C@H](CCCCNC(=O)CCOCCOCCOCCOCCNC(=O)CC[C@H](NC(=O)CCOCCOCCOCCOCCNC(=O)CC[C@H](NC(=O)CN2CCN(CC(=O)O)CCN(CC(=O)O)CCN(CC(=O)O)CC2)C(=O)NCCOCCOCCOCCOCCC(=O)N[C@@H](CCC(=O)NCCOCCOCCOCCOCCC(=O)NCCCC[C@@H]2NC(=O)[C@@H](Cc3ccccc3)NC(=O)[C@H](CC(=O)O)NC(=O)CNC(=O)[C@H](CCCNC(=N)N)NC2=O)C(=O)NCCOCCOCCOCCOCCC(=O)NCCCC[C@@H]2NC(=O)[C@@H](Cc3ccccc3)NC(=O)[C@H](CC(=O)O)NC(=O)CNC(=O)[C@H](CCCNC(=N)N)NC2=O)C(=O)NCCOCCOCCOCCOCCC(=O)NCCCC[C@@H]2NC(=O)[C@@H](Cc3ccccc3)NC(=O)[C@H](CC(=O)O)NC(=O)CNC(=O)[C@H](CCCNC(=N)N)NC2=O)NC(=O)[C@@H](Cc2ccccc2)NC(=O)[C@H](CC(=O)O)NC(=O)CNC1=O [indium-111 labelled],,,"athymic nude mice, female, U-87 MG glioma xenograft, tumour and liver","intravenous, 1 h",reference: tumour over liver,tumour to tissue ratio,2.79 ± 0.73
CC1=C(C)[C@@H](Oc2c(F)cc3c(C)cc(=O)oc3c2F)OC1=O,"RMS3 (Lathyrus oleraceus, UniProt A0A109QYD3)","enzyme activity, substrate, DiFMU release",,pre-steady state,,kcat/K1/2,117 M⁻¹ s⁻¹
NCCCC[C@H](NC(=O)CNC(=O)CNC(=O)[C@H](CCCCN)NC(=O)CNC(=O)CNC(=O)CNC(=O)[C@H](CCCCN)NC(=O)CNC(=O)CNC(=O)[C@H](CCCCN)NC(=O)CNC(=O)CNC(=O)CNC(=O)[C@H](CCCCN)NC(=O)CNC(=O)CNC(=O)[C@H](CCCCN)NC(=O)CNC(=O)CNC(=O)CNC(=O)[C@H](CCCCN)NC(=O)CNC(=O)CNC(=O)[C@H](CCCCN)NC(=O)[C@H](CO)NC(=O)[C@H](Cc1ccc(O)cc1)NC(=O)CNC(=O)CNC(=O)CN)C(=O)NCC(=O)O,,"binding, SPR Langmuir fit",rVλ6Wil fibrils,"300 nM, pH 7.4",,association rate constant,77000 M⁻¹ s⁻¹
CC(=O)NC(Cc1ccc(Br)c(Cl)c1)C(=O)N[C@@H](C)C(=O)N1CCC[C@H]1C(=O)N1CCC[C@H]1C(=O)N[C@@H](CCC(=O)O)C(=O)N[C@@H](Cc1c[nH]cn1)C(=O)N[C@@H](CO)C(=O)N[C@H](C(=O)N[C@@H](C)C(N)=O)[C@@H](C)OP(=O)(O)O (some centres unmarked),"Tyrosine-protein kinase JAK3 (JAK3, Homo sapiens, UniProt P52333)",,,10 µM,,inhibition,0.58 ± 0.03%
CCN(Cc1ccccc1)C(=O)CCc1nc(CN2CCN(C(=O)Cc3ccc(OC)c(OC)c3)CC2)no1,"Potassium voltage-gated channel subfamily KQT member 2 (KCNQ2, Homo sapiens, UniProt O43526)","potassium current, whole-cell patch clamp","CHO, stable",1 µM,,activation V1/2,-40 ± 11.7 mV
CCCCCn1cc(C(=O)c2ccc3ccccc3c2)c2ccccc21,"Cannabinoid receptor 2 (CNR2, Homo sapiens, UniProt P34972, L182I)","Gαi1 engagement, agonist, BRET",,,reference: reference agonist at wild-type CB2,Emax,23.5 ± 3.9%
C[C@@H](NC(=O)[C@@H](CCC(N)=O)NC(=O)[C@@H](C)NC(=O)[C@@H](CCCCN)NC(=O)[C@@H](CCC(N)=O)NC(=O)[C@@H](C)NC(=O)[C@@H](CCCCN)NC(=O)[C@@H](CCC(N)=O)NC(=O)[C@@H](C)NC(=O)[C@@H](CCC(N)=O)NC(=O)[C@@H](CCCCN)NC(=O)[C@@H](C)NC(=O)[C@@H](CCC(N)=O)NC(=O)[C@@H](CCCCN)NC(=O)[C@@H](C)NC(=O)[C@@H](CCC(N)=O)NC(=O)[C@@H](C)NC(=O)[C@@H](CCCCN)NC(=O)[C@@H](CCC(N)=O)NC(=O)[C@@H](C)NC(=O)[C@@H](CCCCN)NC(=O)[C@@H](CO)NC(=O)[C@@H](Cc1ccc(O)cc1)NC(=O)CNC(=O)CNC(=O)CN)C(=O)N[C@H](CCCCN)C(=O)N[C@H](CCC(N)=O)C(=O)N[C@H](C)C(=O)N[C@H](CCCCN)C(=O)N[C@H](CCC(N)=O)C(=O)O,,"binding, SPR two-state model",rVλ6Wil fibrils,300 nM,,ka2,0.0074 s⁻¹
N=C(N)NCCC[C@@H]1NC(=O)[C@H](CCCCNC(=O)CNC(=O)CNC(=O)CNC(=O)CC[C@H](NC(=O)CCOCCOCCOCCOCCNC(=O)CC[C@H](NC(=O)CN2CCN(CC(=O)O)CCN(CC(=O)O)CCN(CC(=O)O)CC2)C(=O)NCCOCCOCCOCCOCCC(=O)N[C@@H](CCC(=O)NCC(=O)NCC(=O)NCC(=O)NCCCC[C@@H]2NC(=O)[C@@H](Cc3ccccc3)NC(=O)[C@H](CC(=O)O)NC(=O)CNC(=O)[C@H](CCCNC(=N)N)NC2=O)C(=O)NCC(=O)NCC(=O)NCC(=O)NCCCC[C@@H]2NC(=O)[C@@H](Cc3ccccc3)NC(=O)[C@H](CC(=O)O)NC(=O)CNC(=O)[C@H](CCCNC(=N)N)NC2=O)C(=O)NCC(=O)NCC(=O)NCC(=O)NCCCC[C@@H]2NC(=O)[C@@H](Cc3ccccc3)NC(=O)[C@H](CC(=O)O)NC(=O)CNC(=O)[C@H](CCCNC(=N)N)NC2=O)NC(=O)[C@@H](Cc2ccccc2)NC(=O)[C@H](CC(=O)O)NC(=O)CNC1=O [indium-111 labelled],,,"female athymic nude mice, eyes","intravenous, 3 µCi, 1 h, U-87 MG glioma xenograft",,tissue uptake,0.69 ± 0.07 %ID/g

# For quick reference, copied from above:
Compound,target or system,assay,test system,setting,scale,endpoint,result
CN[C@](C)(C[18F])C(=O)O,DU-145 tumour model,,"host not given, muscle","30 min, tumour-bearing",,tracer uptake,1.7 %ID/g
